Assay results gathered from unrelated publications.
Parts stem from different laboratories: compare values within a part only.

Study 1 — method: protein binding microarray; form: double-stranded DNA, one strand shown; sample: in vitro; tested at: not given; baseline: not given; direction: higher = stronger binding; quantity: E-score
Target: Histone acetyltransferase KAT6A, both winged helices, GST fusion (KAT6A, Homo sapiens, UniProt Q92794, residues 1-181)
Setting: 8-mer, flanks averaged, mean of 2 arrays, mostly near background
Residues (chain): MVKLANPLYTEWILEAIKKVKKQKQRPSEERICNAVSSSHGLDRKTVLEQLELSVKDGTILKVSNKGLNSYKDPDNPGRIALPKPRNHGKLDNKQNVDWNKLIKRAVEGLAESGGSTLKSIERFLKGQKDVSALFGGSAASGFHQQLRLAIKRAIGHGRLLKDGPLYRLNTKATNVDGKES
Oligonucleotide = AGCCGCAC; result = 0.145
Oligonucleotide = AGAGTAAT; result = 7.5e-05
Oligonucleotide = GCCTAGTA; result = -0.0556
Oligonucleotide = AAGTCTAT; result = -0.192
Oligonucleotide = AGACTCCT; result = -0.137
Oligonucleotide = CGATCCAA; result = 0.0166
Oligonucleotide = AATTTGCA; result = -0.127
Oligonucleotide = CTATGATC; result = 0.0212
Oligonucleotide = AGGCCCTG; result = -0.184
Oligonucleotide = ACCCCGGG; result = 0.205
Oligonucleotide = AGTTCGCG; result = 0.255
Oligonucleotide = AAGGGATT; result = -0.0729
Oligonucleotide = GATGACAA; result = -0.0657
Oligonucleotide = CCCAGACG; result = 0.0418
Oligonucleotide = AATGACGC; result = 0.13
Oligonucleotide = AAATCATA; result = 0.119
Oligonucleotide = AATTCTTC; result = 0.0285
Oligonucleotide = AGACGACC; result = -0.0205
Oligonucleotide = AATTGACC; result = -0.0421
Oligonucleotide = AATTCCCT; result = -0.276
Oligonucleotide = CGGGCATA; result = 0.122
Oligonucleotide = TGATGCAA; result = -0.126
Oligonucleotide = AGTTTGTA; result = -0.156
Oligonucleotide = TCCTGCAA; result = -0.172
Oligonucleotide = ATCAATGG; result = -0.188

Study 2 — organism: Saccharomyces cerevisiae; effect on: binding; method: competitive growth deep sequencing; form: peptide; strain: cyclin D3-Cln2 fusion strain; tested at: concentration not given; setting: peptide tiling library; direction: direction not given; quantity: growth enrichment score
Molecule = KPKPVKPVTFSTGIKM; result = -0.379
Molecule = GLPDFVFQQQPVESEA; result = -0.992
Molecule = QYQVVDDIVSKLVFDF; result = -0.392
Molecule = ARKRLELGNLGNPQ; result = -1.13
Molecule = VEEEFFALRKRTPSAG; result = 0.103
Molecule = RDLFDCDFGDLTPLDF; result = 0.493
Molecule = ALLRRLQDVANDRGSH; result = 4
Molecule = LRRKLFLDGNGSIS; result = 0.148
Molecule = CFRCLLFSFSGRSGVE; result = -1.23
Molecule = AKRSLGFLPQPVPL; result = -0.456
Molecule = ESSTVSEEDYFSSHRD; result = 0.538
Molecule = RSLKLDGLLEEN; result = -0.0417
Molecule = EPKTLFLGAGDFQF; result = 0.793
Molecule = DVSERGYVILPNDYFE; result = 0.52
Molecule = IQKKLRFEDTLEFVGF; result = -0.349
Molecule = EAAPPTQEAQGETEPT; result = 0.812

Study 3 — method: aptamer microarray, sandwich; form: DNA with 2'F-ANA; sample: in vitro; tested at: 200 nM; added: Cy3 exosite-II aptamer, 400 nM; direction: higher = stronger binding; quantity: mean fluorescence intensity; oligonucleotide: GGTTGGTGTGGTTGG
Target: Prothrombin, mature alpha-thrombin (F2, Homo sapiens, UniProt P00734)
Setting: whole 15-mer aptamer, many near background
Modification = 2'F-ANA at 4 6 8 11 12 13 15; result = 300 a.u.
Modification = 2'F-ANA at 2 4 5 8 9 10 12 15; result = 56.2 a.u.
Modification = 2'F-ANA at 4 6 9 13; result = 167 a.u.
Modification = 2'F-ANA at 3 4 11 12 13 14; result = 363 a.u.
Modification = 2'F-ANA at 1 2 3 4 5 7 9 11 14; result = 48.3 a.u.
Modification = 2'F-ANA at 1 3 4 5 7 8 9 12 15; result = 136 a.u.
Modification = 2'F-ANA at 1 2 7 8 10 11 15; result = 54.2 a.u.
Modification = 2'F-ANA at 1 2 3 5 6 7 9 10 13 14; result = 42.5 a.u.
Modification = 2'F-ANA at 2 3 4 12 13 14 15; result = 293 a.u.
Modification = 2'F-ANA at 5 10 13 14 15; result = 46 a.u.
Modification = 2'F-ANA at 1 2 3 4 5 8 10 11; result = 47.2 a.u.
Modification = 2'F-ANA at 1 2 7 8 9 12; result = 363 a.u.
Modification = 2'F-ANA at 4 6 7 12 14; result = 119 a.u.
Modification = 2'F-ANA at 1 4 6 9 11 12 14 15; result = 56.1 a.u.
Modification = 2'F-ANA at 1 3 4 5 8 9 12 15; result = 137 a.u.
Modification = 2'F-ANA at 1 2 3 4 5 6 7 9 10 12 14 15; result = 49.6 a.u.
Modification = 2'F-ANA at 6 10 12 14 15; result = 113 a.u.
Modification = 2'F-ANA at 1 2 4 5 6 9 10 11 13 14; result = 48.5 a.u.
Modification = 2'F-ANA at 1 2 3 5 6 7 12 13 15; result = 81.2 a.u.
Modification = 2'F-ANA at 2 10 12 15; result = 185 a.u.
Modification = 2'F-ANA at 3 4 6 11 12 15; result = 842 a.u.
Modification = 2'F-ANA at 1 5 6 7 14 15; result = 45.2 a.u.
Modification = 2'F-ANA at 1 5 7 14; result = 42.6 a.u.
Modification = 2'F-ANA at 1 2 5 6 8 12 13 14; result = 46.5 a.u.

Study 4 — method: protein-binding microarray; form: double-stranded DNA, one strand shown; sample: in vitro; tested at: 250 nM; setting: 60-bp whole probe; added: salmon DNA 0.4 mg/ml; baseline: random background probes; direction: higher = stronger binding; quantity: log fluorescence; shared flanks, not repeated: GCCTAGCAC … GTCTTGATTCGCTTGACGCTGCTG
Target: Interferon regulatory factor 5, full length, phosphomimetic (IRF5, Homo sapiens, UniProt Q13568-2, residues 1-514, K96S/S451D/S453D/S456D/S462D)
Oligonucleotide = GACGGTATCCTACTGCTTACGTGCTAG; result = -0.23 z-score
Oligonucleotide = TCATGTATATCTTCAGCACTGTGCTAG; result = 0.135 z-score
Oligonucleotide = GACGGTATCGGTCGCGGGACGTGCTAG; result = 4.81 z-score
Oligonucleotide = CTTCACATATAATTTTGTCATGTGCTA; result = 1.31 z-score
Oligonucleotide = GGCGGACTGGGACTGGGGACGTGCTAG; result = -0.719 z-score
Oligonucleotide = TCATTTTTCATTATTGTACTGTGCTAG; result = 1.87 z-score
Oligonucleotide = GACGGACTGAACTTTCGGGACGTGCTA; result = 4.09 z-score
Oligonucleotide = GACGGTTCCGGTTTCGGGACGTGCTAG; result = 4.65 z-score
Oligonucleotide = TTAGATTTCGGGTTTCGATTGGTGCTA; result = 8.43 z-score
Oligonucleotide = TCAGTTCACTATTTAAGACTGTGCTAG; result = 0.39 z-score
Oligonucleotide = TACGGTATCGGGTATCGGGACGTGCTA; result = 3.38 z-score
Oligonucleotide = TCAGTTTCCATTTTCAGACTGTGCTAG; result = 2.64 z-score
Oligonucleotide = GACGGTTCGGGTTTCGGGACGTGCTAG; result = 1.73 z-score
Oligonucleotide = GACGGTATCCTTCTCCTGGCGTGCTAG; result = -0.00643 z-score
Oligonucleotide = TTAGGTTTCCTTTCCGTTTAGTGCTAG; result = 2.3 z-score
Oligonucleotide = TTAGGTATCGACTTTCGGATAGTGCTA; result = 7.82 z-score
Oligonucleotide = TTAGGTTTCCTTTTCCGTTAGTGCTAG; result = 1.41 z-score
Oligonucleotide = TTAGATATCAGACTGGATAAGTGCTAG; result = 0.311 z-score
Oligonucleotide = TCACCTTTCTCAACCTCACTGTGCTAG; result = 0.864 z-score

Repeated from above (study 2):
Molecule = LRRKLFLDGNGSIS; result = 0.148
Molecule = CFRCLLFSFSGRSGVE; result = -1.23
Molecule = AKRSLGFLPQPVPL; result = -0.456
Molecule = ESSTVSEEDYFSSHRD; result = 0.538
Molecule = RSLKLDGLLEEN; result = -0.0417
